Measured values from different studies.
Each numbered part is a random draw from the data of one study; scales do not carry over between parts.

Series 1
Organism: SARS-CoV-2
Effect on: cytopathic effect
Cells: Vero E6
Tested at: 10 µM
Measurement: inhibition
Oc1ccc(C2CNCCc3c2cc(O)c(O)c3Cl)cc1 (centres unmarked): -7.6%
N[C@@H](Cc1ccc(O)c(O)c1)C(=O)O: -6%
Oc1cc2c(cc1O)[C@@H]1c3ccc(O)c(O)c3OC[C@]1(O)C2: -7.3%
C[n+]1c2cc(N)ccc2cc2ccc(N)cc21: 9.7%

Series 2
Target: Ras GTPase-activating protein-binding protein 1, RRM domain (G3BP1, Homo sapiens, UniProt Q13283)
UniProt Q13283, sequence (whole entry, looked up): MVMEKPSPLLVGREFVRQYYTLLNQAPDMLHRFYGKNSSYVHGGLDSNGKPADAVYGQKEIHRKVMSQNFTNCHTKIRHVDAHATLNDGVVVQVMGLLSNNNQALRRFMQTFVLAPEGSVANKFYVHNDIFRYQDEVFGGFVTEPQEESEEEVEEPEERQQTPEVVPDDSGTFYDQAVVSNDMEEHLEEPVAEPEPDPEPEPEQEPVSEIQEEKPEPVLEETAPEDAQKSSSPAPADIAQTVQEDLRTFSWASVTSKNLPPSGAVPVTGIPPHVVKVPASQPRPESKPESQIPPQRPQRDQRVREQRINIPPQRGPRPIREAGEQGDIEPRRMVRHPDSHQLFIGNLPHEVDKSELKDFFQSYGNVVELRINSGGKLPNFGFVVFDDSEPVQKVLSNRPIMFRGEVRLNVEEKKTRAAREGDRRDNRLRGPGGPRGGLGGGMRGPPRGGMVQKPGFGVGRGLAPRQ
Technique: RNA Bind-n-Seq
Molecule type: RNA
Medium: in vitro
Tested at: 1 µM
Setting: whole 134-nt RNA, ends assumed
With: 150 mM KCl
Reference: input library
Reading: higher = stronger binding
Measurement: log2 enrichment
All sequences stand within: GGGAGUUCUACAGUCCGACGAUC … UGGAAUUCUCGGGUGUCAAGG
CUGUGCUACACAUCGUAUGUACCGAAUCGGGAAAAAAAGGGGAAAAAAAGGAAAAAAAGGGAAAGUAUUAUGUUACGCCGUUCGGAUCUG: 0.0924
GCAGGAAGUAAAAACAAAUGGAAAUGCUUCGGAUAGUGGCAGGGGUGGGGGUUGCUAAGGAAAGGGUGGAAUGGGAGUGGGUAAAGAGUU: 1.36
CUGUGCUACACAUCGUAUGUACCGAAUCGGGAAAAAAAGGGUUUUUUUGGGUUUUUUUGGGAAAGUAUUAUGUUACGCCGUUCGGAUCUG: -0.366
AGUCCUGUGCUACACAUCGUAUGUACCGAAUCGGAAAAAGGAAAAAGGAAAAAAAGGAAAGUAUUAUGUUACGCCGUUCGGAUCUGCACU: 0.122
AGUCCUGUGCUACACAUCGUAUGUACCGAAUCGGGGAAAAGGGAAAAGGGGAAAAGGGAAAGUAUUAUGUUACGCCGUUCGGAUCUGCAC: 0.372
CCUGUGCUACACAUCGUAUGUACCGAAUCGGGGAAAAAGGGGAAAAAGGGGUUUUUGGGGAAAGUAUUAUGUUACGCCGUUCGGAUCUGC: 0.842
CCUCAAGUCCUGUGCUACACAUCGUAUGUACCGAAUCGGAGGGAGGGGAGGGAAAGUAUUAUGUUACGCCGUUCGGAUCUGCACUUCCAG: 0.14
ACCAUGCAGGUGGGCAUCUUUGGGAAGUGGGGCAAGGGGGGGAUAGGGAGGGGGGUAACACUUUGGGCACAGGUGGUCCCAGGUCGUUUC: 0.93

Series 3
Target: RNA binding protein fox-1 homolog 2, RRM domain, GST-SBP tag (RBFOX2, Homo sapiens, UniProt O43251-10, residues 100-194)
Technique: RNA Bind-n-Seq
Molecule type: RNA
Medium: in vitro
Tested at: 365 nM
Setting: natural RNA segment, single round, ends assumed
Reference: no-protein control
Reading: higher = stronger binding
Measurement: RBNS enrichment (R)
All sequences stand within: GGGAGUUCUACAGUCCGACGAUC … UGGAAUUCUCGGGUGCCAA
Construct (chain): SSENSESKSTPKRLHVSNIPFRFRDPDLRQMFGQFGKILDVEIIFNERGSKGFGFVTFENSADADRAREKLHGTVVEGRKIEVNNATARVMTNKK
AAGCCCAGAACAGAGACUUGAACACCAUGUCCUUAACCAAAGUCAGCUCUUCAGAGUGUAAAUGAGGGUCUGACUGGAAGCAGGGCAGCAGCUGUAAUUCUUCCAGCUCU: 0.312
UAUUUCCUAUCUAACCUUCAAAUAGCUUCCAAUUCUUUUUUUCUUGGACUGGCUUCAUUCUGAAUUUGUGCUAAAAUAAUCUUUCAUAAAGAGACCUCAGUUUAUAGCGU: 0.602
CACACCACAGCCCUAACACACCAGUUAUUCUCAGAGAAGCACUGCUCUGGAAGUUUGGCUACCUCUAGGCAUGUGAGAAGGAAGGAAAGCCUAUUGCCUUUUCUCCUUUU: 0.91
CAACGAUUUGGUCAAGGAGGUUAUGAUUCUUCAUAGUCACUCUCCUCAUGAAUCCUUCCCAUUUAUUCCAUGGUAGGACUUGCUUAAGAUCCCUUGUUUCUUUCUCUUUU: 0.499
CAUAAAAACAGAAAGAACAACGCCCUGGAGCCAAUCUUCAAGAAAGGAAUUUCCAAAGGAUAAUAUUUUUCUAAUAAAUGCGGCUGCAACCUCCUGUGCAUUUAAUUAAA: 1.17
CAGAAUGAGAAAGGAAUGGUACUUAGGUGUUUGGUAUGCUGCUCACGUGAAGUCAGCCCACACCAGCCAAACCCUCGUGGAAGAUCUGCUGCAACCAUUAUCUUUGUUCU: 0.93
UCUAAGUGCUGACUGGCUACGUAGUUCGGGCAAAUCCUCCAAAAGGGAAAGGGAGGAUUUGCUUAGAAGGAUGGCGCUCCCAGUGACUACUUUUUGACUUCUGUUUGUCU: 0.442
GUUGCUUCCCGUUCAGCGUCACAUCUGCAGUGGAGCCUGAAAAGGCUCCACAUUAGGUCACCUGUGCACAGCCAUGGCUGGAAUGAUGAAGGGGAUACGCUGGAGUUGCC: 0.293

Series 4
Cell line: HEK-293T
Effect on: pseudovirus infection
Technique: FDA-approved drug library screen
Organism: VSV pseudotyped with SARS-CoV-2 spike
Tested at: 10 µM
Time: 16 h
Reference: vehicle-treated
Measurement: GFP-positive cells
CC1(C)S[C@@H]2[C@H](NC(=O)COc3ccccc3)C(=O)N2[C@H]1C(=O)O: 101%
OC(CCCN1CCCCC1)(c1ccccc1)c1ccccc1: 71.8%
COc1ccc(C(=O)CC(=O)c2ccc(C(C)(C)C)cc2)cc1: 82.9%
N[C@@H](CC(=O)N1CCn2c(nnc2C(F)(F)F)C1)Cc1cc(F)c(F)cc1F: 110%
Cc1c(OCC(F)(F)F)ccnc1C[S+]([O-])c1nc2ccccc2[nH]1 (centres unmarked): 105%

Series 5
Target: Replicase polyprotein 1ab, nsp13 helicase (rep, Severe acute respiratory syndrome coronavirus 2, UniProt P0DTD1)
Mode: inhibitor
Tested at: 20 µM
Measurement: inhibition
CO/N=C(\C(=O)N[C@@H]1C(=O)N2C(C(=O)O)=C(C)CS[C@H]12)c1csc(N)n1: 5.83%
CCC(=O)[C@@]1(C)[C@H](C)C[C@H]2[C@@H]3CCC4=CC(=O)C=C[C@]4(C)[C@H]3[C@@H](O)C[C@@]21C: 2.02%
Cc1cnc(NC(=O)c2cc(Oc3cnc(C(=O)N(C)C)nc3)c3cc(C)oc3c2)cn1: 0.14%
Cn1cc(-c2cc(Oc3cc(F)c(NC(=O)C4(C(=O)Nc5ccccc5)CC4)cc3F)ccn2)cn1: 6.76%
OC1(c2ccc(Cl)cc2)c2ccccc2C2=NCCN21 (centres unmarked): 5.42%
CCOC(=O)[C@@H](N)Cc1ccc(-c2cc(O[C@H](c3ccc(Cl)cc3-n3ccc(C)n3)C(F)(F)F)nc(N)n2)cc1: 4.9%
[2H]C([2H])([2H])C(=O)Nc1c(I)c(C(=O)O)c(I)c(C(=O)NC)c1I: -0.96%
O=CN1CCC(C(=O)NCCN2CCC(=C3c4ccccc4C=Cc4ccccc43)CC2)CC1: 8.81%
CN(C)C/C=C/C(=O)Nc1cc2c(Nc3ccc(F)c(Cl)c3)ncnc2cc1O[C@H]1CCOC1: 6.45%
CC(=O)C1=C(O)[C@@H]2[C@H]3c4c[nH]c5cccc(c45)C[C@H]3C(C)(C)N2C1=O: 2.47%
CO[C@H]1CC[C@@H](C(=O)c2ccc3nc4c(cc3c2)CCCO4)CC1: 2.75%
COc1ccc2c(C)nc(Nc3nc(C)c(C)c(=O)[nH]3)nc2c1: 8.03%
Nc1ccccc1S(N)(=O)=O: -1.03%
CC[C@H]1OC(=O)[C@H](C)[C@@H](O[C@H]2C[C@@](C)(OC)[C@@H](O)[C@H](C)O2)[C@H](C)[C@@H](O[C@@H]2O[C@H](C)C[C@H](N(C)C)[C@H]2O)[C@](C)(O)C[C@@H](C)C(=O)[C@H](C)[C@@H](O)[C@]1(C)O: 2.71%
C=CCNc1c(O)cc2c(O)c1C[C@@H](C)C[C@H](OC)[C@H](O)[C@@H](C)/C=C(\C)[C@H](OC(N)=O)[C@@H](OC)/C=C\C=C(/C)C(=O)N2: 8.14%
O=C(O)Cc1ccc(OCc2ccccc2)c(Cl)c1: 3.6%
C[C@]12C=CC(=O)C=C1CC[C@@H]1[C@@H]2C(=O)C[C@@]2(C)[C@H]1CC[C@]2(O)C(=O)CO: 14.1%
CN1CCN(CCOc2cc(OC3CCOCC3)c3c(Nc4c(Cl)ccc5c4OCO5)ncnc3c2)CC1: 3.98%
O=C(O)CN1C(=O)c2cccc3cccc(c23)C1=O: 7.47%
CN(C(=O)c1ccc(F)cc1C(F)(F)F)C1CCN(c2nnc(-c3ccnn3C)c3ccccc23)CC1: 1.09%
COc1ccc2c(c1)c(C1=C(c3c[nH]c4ccccc34)C(=O)NC1=O)cn2CCCN(C)C: 22.3%
OC[C@H]1O[C@@H](c2ccc(F)c(Cc3cc4ccccc4s3)c2)[C@H](O)[C@@H](O)[C@@H]1O: 5.35%
Clc1cccc(Nc2nnc(-c3ccccc3)c3ccccc23)c1: -4.56%
Cn1c(=O)cc(N2CCC[C@@H](N)C2)n(Cc2ccccc2C#N)c1=O: -0.08%
CN(C)c1ccc(C(=C2C=CC(=[N+](C)C)C=C2)c2ccc(N(C)C)cc2)cc1: 107%

Excerpt of the above (series 5):
CO[C@H]1CC[C@@H](C(=O)c2ccc3nc4c(cc3c2)CCCO4)CC1: 2.75%
O=CN1CCC(C(=O)NCCN2CCC(=C3c4ccccc4C=Cc4ccccc43)CC2)CC1: 8.81%
OC[C@H]1O[C@@H](c2ccc(F)c(Cc3cc4ccccc4s3)c2)[C@H](O)[C@@H](O)[C@@H]1O: 5.35%
